Measured values from different studies.
“And” joins repeats or separate records; there may be more than shown. ± marks the error that the study gave.
EPHA2: Ephrin type-A receptor 2 (EPHA2, Homo sapiens, UniProt P29317)
Sequence of UniProt P29317 (whole entry, looked up): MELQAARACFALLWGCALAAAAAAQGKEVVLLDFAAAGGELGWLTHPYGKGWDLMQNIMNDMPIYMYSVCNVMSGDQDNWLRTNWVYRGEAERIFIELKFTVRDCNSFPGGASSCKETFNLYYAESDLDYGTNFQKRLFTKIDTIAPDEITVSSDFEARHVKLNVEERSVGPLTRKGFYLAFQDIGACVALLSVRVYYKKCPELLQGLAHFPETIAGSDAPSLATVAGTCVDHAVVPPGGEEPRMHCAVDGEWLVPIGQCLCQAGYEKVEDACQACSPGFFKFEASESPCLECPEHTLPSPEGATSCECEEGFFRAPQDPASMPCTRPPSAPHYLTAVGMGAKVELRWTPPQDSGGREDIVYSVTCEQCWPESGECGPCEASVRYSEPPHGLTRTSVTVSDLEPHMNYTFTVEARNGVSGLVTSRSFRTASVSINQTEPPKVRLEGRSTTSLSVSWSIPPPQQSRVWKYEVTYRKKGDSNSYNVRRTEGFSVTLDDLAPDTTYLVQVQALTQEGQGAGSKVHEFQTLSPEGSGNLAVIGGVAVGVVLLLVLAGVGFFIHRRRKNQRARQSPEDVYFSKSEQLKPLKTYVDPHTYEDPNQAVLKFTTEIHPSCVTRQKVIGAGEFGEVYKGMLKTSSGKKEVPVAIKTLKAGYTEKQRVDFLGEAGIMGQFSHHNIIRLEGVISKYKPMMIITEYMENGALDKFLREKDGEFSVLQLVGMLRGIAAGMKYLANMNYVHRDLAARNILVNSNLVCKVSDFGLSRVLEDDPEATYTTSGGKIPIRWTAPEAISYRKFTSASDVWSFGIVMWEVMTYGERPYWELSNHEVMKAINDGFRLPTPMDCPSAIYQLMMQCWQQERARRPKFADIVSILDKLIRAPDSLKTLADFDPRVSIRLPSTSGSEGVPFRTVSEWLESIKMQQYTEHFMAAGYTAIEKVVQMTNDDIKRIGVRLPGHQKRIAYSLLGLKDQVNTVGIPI
CAPN1: Calpain-1 catalytic subunit (CAPN1, Homo sapiens, UniProt P07384)
Sequence of UniProt P07384 (whole entry, looked up): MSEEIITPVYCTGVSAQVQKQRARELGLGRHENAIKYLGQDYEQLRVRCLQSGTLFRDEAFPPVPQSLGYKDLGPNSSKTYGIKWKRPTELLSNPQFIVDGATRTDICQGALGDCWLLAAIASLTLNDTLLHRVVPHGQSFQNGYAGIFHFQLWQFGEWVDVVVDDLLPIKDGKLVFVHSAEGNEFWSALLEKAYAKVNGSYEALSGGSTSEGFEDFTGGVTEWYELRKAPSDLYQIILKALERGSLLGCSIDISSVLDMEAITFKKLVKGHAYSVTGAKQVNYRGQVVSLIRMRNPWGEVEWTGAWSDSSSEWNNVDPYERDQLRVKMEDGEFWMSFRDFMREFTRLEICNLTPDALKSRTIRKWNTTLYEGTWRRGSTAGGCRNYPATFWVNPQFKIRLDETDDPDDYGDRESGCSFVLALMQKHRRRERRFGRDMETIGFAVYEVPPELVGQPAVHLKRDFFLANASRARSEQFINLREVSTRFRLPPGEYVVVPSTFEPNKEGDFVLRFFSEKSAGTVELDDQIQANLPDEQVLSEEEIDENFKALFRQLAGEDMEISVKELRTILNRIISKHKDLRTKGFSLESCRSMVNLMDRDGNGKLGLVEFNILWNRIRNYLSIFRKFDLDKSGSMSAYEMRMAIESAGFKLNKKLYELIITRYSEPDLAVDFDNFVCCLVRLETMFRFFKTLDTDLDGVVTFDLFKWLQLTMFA
bglA: bglA (Thermotoga maritima, UniProt Q08638)
Sequence of UniProt Q08638 (whole entry, looked up): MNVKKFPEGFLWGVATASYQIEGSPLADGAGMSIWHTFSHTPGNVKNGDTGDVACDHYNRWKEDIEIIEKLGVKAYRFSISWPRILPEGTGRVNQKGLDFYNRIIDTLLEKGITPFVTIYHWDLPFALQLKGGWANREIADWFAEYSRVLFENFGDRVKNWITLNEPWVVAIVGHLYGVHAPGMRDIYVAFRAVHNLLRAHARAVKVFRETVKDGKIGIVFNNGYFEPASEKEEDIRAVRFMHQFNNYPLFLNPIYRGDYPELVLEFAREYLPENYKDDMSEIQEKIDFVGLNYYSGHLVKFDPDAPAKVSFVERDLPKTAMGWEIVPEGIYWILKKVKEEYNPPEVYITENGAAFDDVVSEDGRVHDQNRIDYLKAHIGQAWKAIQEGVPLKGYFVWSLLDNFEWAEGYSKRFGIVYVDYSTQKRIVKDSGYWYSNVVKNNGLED
DRD2: D(2) dopamine receptor (DRD2, Homo sapiens, UniProt P14416)
Sequence of UniProt P14416 (whole entry, looked up): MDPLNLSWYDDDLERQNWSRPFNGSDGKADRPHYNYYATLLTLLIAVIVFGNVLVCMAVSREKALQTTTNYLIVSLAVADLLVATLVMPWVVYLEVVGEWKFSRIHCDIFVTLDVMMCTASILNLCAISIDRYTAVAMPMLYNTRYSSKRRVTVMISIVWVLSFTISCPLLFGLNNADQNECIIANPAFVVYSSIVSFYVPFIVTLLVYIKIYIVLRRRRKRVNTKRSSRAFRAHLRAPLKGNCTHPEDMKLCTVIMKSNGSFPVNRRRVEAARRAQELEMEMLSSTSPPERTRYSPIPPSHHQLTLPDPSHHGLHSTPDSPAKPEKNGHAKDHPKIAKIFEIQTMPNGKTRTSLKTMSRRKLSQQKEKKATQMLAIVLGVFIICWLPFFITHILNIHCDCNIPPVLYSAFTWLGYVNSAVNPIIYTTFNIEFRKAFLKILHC
GLAA: Glucoamylase (GLAA, Aspergillus niger, UniProt P69328)
Sequence of UniProt P69328 (whole entry, looked up): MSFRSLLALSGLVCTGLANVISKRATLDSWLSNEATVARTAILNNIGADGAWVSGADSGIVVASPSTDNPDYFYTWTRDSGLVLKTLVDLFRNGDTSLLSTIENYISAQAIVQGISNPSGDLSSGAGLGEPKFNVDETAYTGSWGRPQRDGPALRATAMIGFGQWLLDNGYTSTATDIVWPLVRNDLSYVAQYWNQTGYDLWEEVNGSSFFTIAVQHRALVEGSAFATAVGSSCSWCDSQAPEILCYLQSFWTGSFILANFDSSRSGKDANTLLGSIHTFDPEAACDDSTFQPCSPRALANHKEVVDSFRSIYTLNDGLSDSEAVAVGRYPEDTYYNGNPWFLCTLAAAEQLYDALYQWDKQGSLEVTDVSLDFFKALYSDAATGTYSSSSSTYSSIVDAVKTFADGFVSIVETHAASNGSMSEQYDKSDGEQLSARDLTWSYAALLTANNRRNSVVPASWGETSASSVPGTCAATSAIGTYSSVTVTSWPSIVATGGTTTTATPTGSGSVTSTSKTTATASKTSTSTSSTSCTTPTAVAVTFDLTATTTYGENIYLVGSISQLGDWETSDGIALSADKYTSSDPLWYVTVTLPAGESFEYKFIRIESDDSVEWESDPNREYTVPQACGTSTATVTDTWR
Calpain-2 catalytic subunit: Calpain-2 catalytic subunit (Homo sapiens, UniProt P17655)
Sequence of UniProt P17655 (whole entry, looked up): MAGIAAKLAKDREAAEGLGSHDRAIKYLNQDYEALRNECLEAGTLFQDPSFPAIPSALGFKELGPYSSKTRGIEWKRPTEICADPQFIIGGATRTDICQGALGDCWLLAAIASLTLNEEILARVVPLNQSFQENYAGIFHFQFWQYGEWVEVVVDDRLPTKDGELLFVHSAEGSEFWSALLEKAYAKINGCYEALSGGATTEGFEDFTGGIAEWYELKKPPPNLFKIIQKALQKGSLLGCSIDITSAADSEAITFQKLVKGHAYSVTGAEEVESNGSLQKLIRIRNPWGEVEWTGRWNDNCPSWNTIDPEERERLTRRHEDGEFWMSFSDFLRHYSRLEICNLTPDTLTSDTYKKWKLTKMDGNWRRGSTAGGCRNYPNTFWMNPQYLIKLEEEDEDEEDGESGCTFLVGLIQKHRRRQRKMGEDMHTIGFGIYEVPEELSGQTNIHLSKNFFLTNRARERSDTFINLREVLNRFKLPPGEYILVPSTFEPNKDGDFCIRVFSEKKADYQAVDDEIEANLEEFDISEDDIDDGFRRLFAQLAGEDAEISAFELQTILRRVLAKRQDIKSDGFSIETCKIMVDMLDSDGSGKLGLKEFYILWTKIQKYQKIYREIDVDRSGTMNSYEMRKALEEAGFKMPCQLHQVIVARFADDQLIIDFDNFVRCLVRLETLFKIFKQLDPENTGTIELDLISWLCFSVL
Astl: Astacin-like metalloendopeptidase (Astl, Mus musculus, UniProt Q6HA09)
Sequence of UniProt Q6HA09 (whole entry, looked up): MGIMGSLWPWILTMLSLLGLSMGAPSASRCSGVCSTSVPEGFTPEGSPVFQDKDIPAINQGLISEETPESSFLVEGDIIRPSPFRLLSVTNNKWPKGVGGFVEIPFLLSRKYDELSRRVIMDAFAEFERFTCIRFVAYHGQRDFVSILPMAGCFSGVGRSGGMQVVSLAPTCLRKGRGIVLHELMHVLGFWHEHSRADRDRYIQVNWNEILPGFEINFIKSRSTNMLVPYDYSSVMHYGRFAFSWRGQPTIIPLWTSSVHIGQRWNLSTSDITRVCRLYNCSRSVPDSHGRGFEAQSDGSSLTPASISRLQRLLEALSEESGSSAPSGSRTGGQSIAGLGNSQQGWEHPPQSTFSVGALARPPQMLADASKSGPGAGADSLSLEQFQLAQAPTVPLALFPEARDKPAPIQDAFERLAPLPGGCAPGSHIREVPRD
Na(+)/H(+) exchange regulatory cofactor NHE-RF2 PDZ domain 1: Na(+)/H(+) exchange regulatory cofactor NHE-RF2, PDZ domain 1 (Homo sapiens, UniProt Q15599)
XIAP BIR3: E3 ubiquitin-protein ligase XIAP, BIR3 (XIAP, Homo sapiens, UniProt P98170)
DHFR: Dihydrofolate reductase (DHFR, Homo sapiens, UniProt P00374)
Sequence of UniProt P21554 (whole entry, looked up): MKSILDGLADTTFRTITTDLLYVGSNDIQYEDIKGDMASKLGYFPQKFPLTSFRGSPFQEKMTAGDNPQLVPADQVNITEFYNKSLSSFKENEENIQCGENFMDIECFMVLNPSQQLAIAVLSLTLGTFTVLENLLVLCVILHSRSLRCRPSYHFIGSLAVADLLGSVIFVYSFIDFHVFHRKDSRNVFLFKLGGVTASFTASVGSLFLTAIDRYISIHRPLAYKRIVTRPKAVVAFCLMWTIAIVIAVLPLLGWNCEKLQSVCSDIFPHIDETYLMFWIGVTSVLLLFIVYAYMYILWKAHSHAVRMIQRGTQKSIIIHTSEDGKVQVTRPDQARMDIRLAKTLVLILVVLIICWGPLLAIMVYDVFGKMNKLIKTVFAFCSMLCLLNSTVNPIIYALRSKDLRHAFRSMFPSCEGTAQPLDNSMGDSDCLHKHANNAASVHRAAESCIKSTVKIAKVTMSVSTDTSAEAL
Sequence of UniProt P00374 (whole entry, looked up): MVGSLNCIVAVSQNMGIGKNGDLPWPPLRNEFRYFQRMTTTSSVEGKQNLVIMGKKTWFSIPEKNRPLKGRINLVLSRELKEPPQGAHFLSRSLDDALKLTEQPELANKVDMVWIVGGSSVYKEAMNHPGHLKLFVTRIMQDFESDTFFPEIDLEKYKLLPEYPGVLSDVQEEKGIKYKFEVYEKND

| SMILES | target | assay | test system | conditions | Ki |
| --- | --- | --- | --- | --- | --- |
| CNC(=O)C1CCN(c2ccccc2NC(=O)c2ccc(-c3cc(O)ccc3C)c(OC)c2)CC1 | EPHA2 | enzyme activity, inhibitor |  |  | 0.0092 µM |
| O=C1c2cccc3cccc(c23)C(=O)N1CCNCCN1C(=O)c2cccc3cccc(c23)C1=O | Chitooligosaccharidolytic beta-N-acetylglucosaminidase (Ostrinia furnacalis, UniProt Q06GJ0) | inhibitor |  | pH 6.0, 25 °C, with: pNP-β-GlcNAc | > 100 µM |
| [N-]=[N+]=N[C@H]1C[C@H](n2cnc3c(=S)[nH]c(N)nc32)O[C@@H]1COP(=O)(O)OP(=O)(O)OP(=O)(O)O | TERT (Homo sapiens, UniProt O14746) | enzyme activity, inhibitor |  |  | 9 µM |
| CCC(NC(=O)C(CC(C)C)NC(=O)NCc1ccccc1)C(=O)C(=O)NCc1cc(OC)cc(OC)c1 (stereo not shown) | CAPN1 | enzyme activity, inhibitor, fluorescence |  |  | 0.208 µM |
| CCCC/N=C1/SC[C@@H]2[C@@H](O)[C@H](O)[C@@H](O)[C@@H](CCC)N12 | bglA | competitive inhibitor |  | with: p-nitrophenyl glucopyranoside | 16 ± 1 µM |
| C[C@@H]1Cc2cc(C(=O)C3=C(O)C(=O)N(CCc4ccccc4)[C@@H]3c3cccc(Br)c3)ccc2O1 | FABP5 (Homo sapiens, UniProt Q01469) | ligand displacement, fluorescence |  |  | 3.13 µM |
| C[C@H]1CN(C2CC2)C[C@H]1NC(=O)c1cnc2c(F)ccc(F)c2c1 | DRD2 | ligand displacement, radioligand |  |  | > 10 µM |
| CC(Oc1cc(-c2ccccc2)nc2cnccc12)C(=O)N(C)c1ccccc1 (stereo not shown) | Tspo (Rattus norvegicus, UniProt P16257) | binding, radioligand displacement | rat brain homogenate |  | 0.0003 ± 0.0002 µM |
| CCCCCCCCNC(=S)N1[C@H](CCC)[C@H](O)[C@@H](O)[C@H](O)[C@H]1CO | GLAA | enzyme activity, competitive inhibitor |  | optimal pH, with: p-nitrophenyl glycopyranoside | > 2000 µM |
| CC1(C)C2=C3C=C4C5=[N+](CCC4OC3CCN2c2ccc(S(=O)(=O)[O-])cc21)c1ccc(C(=O)NCCCCOc2ccc(C(=O)CCCN3CCC(O)(c4ccc(Cl)cc4)CC3)cc2)cc1C5(C)C (stereo not shown) | DRD2 | ligand displacement, radioligand |  | cell membranes | 0.013 µM |
| CCC(NC(=O)C(CC(C)C)NC(=O)CCc1ccccc1)C(=O)C(=O)NCc1cc(OC)cc(OC)c1 (stereo not shown) | Calpain-2 catalytic subunit | enzyme activity, inhibitor, fluorescence |  |  | 0.056 µM |
| O=C(CCN(Cc1ccc2c(c1)OCO2)Cc1ccc2c(c1)OCO2)NO | Astl | enzyme activity, inhibitor, fluorogenic |  | pH 7.4, 37 °C, apparent Ki, Morrison equation, with: 25 µM substrate | 1.15 ± 0.07 µM |
| NC(CC(=O)c1cccc(O)c1)C(=O)O (stereo not shown) | Kynureninase (Rattus norvegicus, UniProt P70712) | inhibitor |  |  | 0.04 µM |
| CNC(=O)C1CCN(c2ccccc2NC(=O)c2ccc(-c3ccccc3C)c(C)c2)CC1 | EPHA2 | enzyme activity, inhibitor |  |  | 0.096 µM |
| CC[C@H](C)[C@H](NC(=O)[C@@H](NC(=O)[C@H](CO)NC(=O)[C@@H](NC(=O)[C@@H]1CCCN1C(=O)[C@H](Cc1c[nH]c2ccccc12)NC(=O)[C@@H](N)CS)[C@@H](C)O)[C@@H](C)CC)C(=O)O | Na(+)/H(+) exchange regulatory cofactor NHE-RF2 PDZ domain 1 | binding to PDZ1 domain, inhibitor, fluorescence polarization |  |  | > 5000 µM |
| CN[C@@H](C)C(=O)N[C@H]1CN(C(=O)Cc2ccccc2)CC[C@H]2CC[C@@H](C(=O)NCc3ccccc3C(F)(F)F)N2C1=O | XIAP BIR3 | ligand displacement, FP |  |  | 4.24 µM |
| N=C(N)NCCCc1c[nH]cn1 | HRH1 (Homo sapiens, UniProt P35367) | cell-free assay |  |  | > 100 µM |
| CNC(=O)C1CCN(c2ccccc2NC(=O)c2ccc(-c3cc(O)ccc3C)cc2)CC1 | EPHA2 | enzyme activity, inhibitor |  |  | 0.0073 µM |
| CCC[C@@H]1[C@H](O)[C@@H](O)[C@H](O)[C@@H](CO)N1C(=S)NCc1ccccc1 | bglA | competitive inhibitor |  | with: p-nitrophenyl glucopyranoside | > 2000 µM |
| CCn1c2ccccc2c2cc(CNCCCn3ccnn3)ccc21 | DRD2 | cell-free assay |  |  | > 10 µM |

| SMILES | target | assay | test system | conditions | Ki |
| --- | --- | --- | --- | --- | --- |
| CNc1ccccc1C(=O)O[C@H]1[C@@H](O)[C@H](n2cnc3c(N)ncnc32)O[C@@H]1COP(=O)(O)OP(=O)(O)O | ADCY1 (Bos taurus, UniProt P19754) | adenylyl cyclase activity, inhibitor | Sf9 membranes | with: 5 mM MnCl2, 100 µM forskolin | 1.3 ± 0.2 µM |
| Cc1ncsc1-c1ccc([C@H](C)NC(=O)[C@@H]2C[C@@H](O)CN2C(=O)[C@@H](N)C(C)(C)C)cc1 | von Hippel-Lindau disease tumor suppressor, with elongin B/C (VHL, Homo sapiens, UniProt P40337) |  |  |  | 3.4 µM |
| O=C(N/N=C/c1cc(Br)c(O)c(Br)c1O)C(=O)Nc1ccc2ccccc2c1 | CFTR (Homo sapiens, UniProt P13569) | ion current, inhibitor |  |  | ~2 µM |
| CN[C@@H](C)C(=O)N[C@H]1CN(C(=O)Cc2ccccc2)CC[C@H]2CC[C@@H](C(=O)NCc3cccc(C(F)(F)F)c3)N2C1=O | XIAP BIR3 | ligand displacement, FP |  |  | 3.75 µM |
| CCC(NC(=O)C(CC(C)C)NC(=O)NCc1ccc(C#N)cc1)C(=O)C(=O)NCc1cc(OC)cc(OC)c1 (stereo not shown) | CAPN1 | enzyme activity, inhibitor, fluorescence |  |  | 0.252 µM |
| N=C(N)Nc1nc2ccc(Cl)cc2[nH]1 | DHFR | inhibitor |  |  | 2.77 µM |
| CCC[C@@H]1[C@H](O)[C@@H](O)[C@H](O)[C@@H](CO)N1C(=S)NCc1ccc(OC)cc1 | bglA | competitive inhibitor |  | with: p-nitrophenyl glucopyranoside | > 2000 µM |
| N=C(N)Nc1nc2cc(C(F)(F)F)ccc2[nH]1 | DHFR | inhibitor |  |  | 2.12 µM |
| COc1cc(C(=O)c2[nH]c(N)nc2-c2cccs2)cc(OC)c1OC | tubulin, goat | colchicine binding, inhibitor |  | 37 °C, with: colchicine 10 µM | 1.1 ± 0.13 µM |
| CNC(=O)C1CCN(C(=O)CCC(=O)N(CC(C)(C)C)c2ccc(Cl)cc2C(O)c2ccccc2Cl)CC1 (stereo not shown) | Squalene synthase (Homo sapiens, UniProt P37268) | binding, fluorescence polarization competition |  | active site tracer | 0.7 µM |
| Fc1cc(OCCCN2CCN(c3cccc4sccc34)CC2)ccc1CN1CCOCC1 | 5-hydroxytryptamine receptor 2C (Rattus norvegicus, UniProt P08909) |  |  |  | 0.43 ± 0.0523 µM |
| CCC[C@@H]1[C@H](O)[C@@H](O)[C@H](O)[C@@H](CO)N1C(=S)NCc1ccc(C(F)(F)F)cc1 | GLAA | enzyme activity, competitive inhibitor |  | optimal pH, with: p-nitrophenyl glycopyranoside | > 2000 µM |
| O=C(CCN(Cc1cccnc1)Cc1cccnc1)NO | Astl | enzyme activity, inhibitor, fluorogenic |  | pH 7.4, 37 °C, apparent Ki, Morrison equation, with: 25 µM substrate | 28.3 ± 1.1 µM |
| CC[C@H](C)[C@H](NC(=O)[C@@H](NC(=O)[C@H](CO)NC(=O)[C@@H](NC(=O)[C@H](CCC(N)=O)NC(=O)[C@H](CCSC)NC(=O)[C@@H](N)CS)[C@@H](C)O)[C@@H](C)CC)C(=O)O | Na(+)/H(+) exchange regulatory cofactor NHE-RF2 PDZ domain 1 | binding to PDZ1 domain, inhibitor, fluorescence polarization |  |  | 245 ± 26 µM |
| CCCc1nc2ccc(N(Cc3ccco3)C(=O)c3ccccc3)cc2c(=O)n1Cc1ccc(-c2ccccc2-c2nnn[nH]2)cc1 | AGTR1 (Homo sapiens, UniProt P30556) | ligand displacement, radioligand |  |  | 0.0037 µM |
| CNC(=O)C1CCN(c2cc(C)c(F)cc2NC(=O)c2ccc(-c3cc(O)ccc3C)c(C)c2)CC1 | Tyrosine-protein kinase Lyn, isoform A (LYN, Homo sapiens, UniProt P07948) | LanthaScreen binding |  |  | 0.0118 µM |
| CC(=O)c1ccc(NC(=O)c2nc(-c3ccccc3)n(-c3ccc(C)cc3)n2)cc1 | CNR1 (Homo sapiens, UniProt P21554) | cell-free assay |  |  | 0.495 µM and 0.496 µM |
| O=C(CCN(Cc1cccc(C(=O)O)c1)Cc1cccc(C(=O)O)c1)NO | Astl | enzyme activity, inhibitor, fluorogenic |  | pH 7.4, 37 °C, apparent Ki, Morrison equation, with: 25 µM substrate | 1.06 ± 0.03 µM |
| CCCCCCCCNC(=S)N1[C@H](CCCCCCCC)[C@H](O)[C@@H](O)[C@H](O)[C@H]1CO | bglA | competitive inhibitor |  | with: p-nitrophenyl glucopyranoside | > 2000 µM |
| CCC(NC(=O)C(CC(C)C)NC(=O)NCc1ccccc1)C(=O)C(=O)NCc1cc(F)cc(OC)c1 (stereo not shown) | Calpain-2 catalytic subunit | enzyme activity, inhibitor, fluorescence |  |  | 0.072 µM |

A few entries again:
| SMILES | target | assay | test system | conditions | Ki |
| --- | --- | --- | --- | --- | --- |
| COc1cc(C(=O)c2[nH]c(N)nc2-c2cccs2)cc(OC)c1OC | tubulin, goat | colchicine binding, inhibitor |  | 37 °C, with: colchicine 10 µM | 1.1 ± 0.13 µM |
| CNC(=O)C1CCN(C(=O)CCC(=O)N(CC(C)(C)C)c2ccc(Cl)cc2C(O)c2ccccc2Cl)CC1 (stereo not shown) | Squalene synthase (Homo sapiens, UniProt P37268) | binding, fluorescence polarization competition |  | active site tracer | 0.7 µM |
| Fc1cc(OCCCN2CCN(c3cccc4sccc34)CC2)ccc1CN1CCOCC1 | 5-hydroxytryptamine receptor 2C (Rattus norvegicus, UniProt P08909) |  |  |  | 0.43 ± 0.0523 µM |
